Measured values pooled from the literature.
A part holds a random share of what one study measured.

Sample 1 — technique: RNA Bind-n-Seq; molecule type: RNA; sample: in vitro; tested at: not given; reference: input RNA pool; direction: higher = stronger binding; measurement: bound/input enrichment
Target: RING finger protein unkempt homolog, zinc fingers 1-6, GST-SBP tag (UNK, Homo sapiens, UniProt Q9C0B0, residues 30-357)
Notes: RNA with constant flanks, human and mouse sites, ends assumed
Target sequence (chain): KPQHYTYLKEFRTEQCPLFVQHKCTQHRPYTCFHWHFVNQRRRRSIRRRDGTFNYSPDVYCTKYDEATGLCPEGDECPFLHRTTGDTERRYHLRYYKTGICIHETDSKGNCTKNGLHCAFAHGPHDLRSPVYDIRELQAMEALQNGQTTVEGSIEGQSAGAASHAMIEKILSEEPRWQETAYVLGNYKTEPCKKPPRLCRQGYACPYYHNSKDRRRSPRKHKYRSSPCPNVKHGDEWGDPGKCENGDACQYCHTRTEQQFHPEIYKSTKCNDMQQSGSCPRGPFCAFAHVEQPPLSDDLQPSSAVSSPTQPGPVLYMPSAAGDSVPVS
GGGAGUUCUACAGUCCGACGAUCAAGGUGGAAGAACUCCUUUAAUGAAAGCUGCAAGAGCUGGUCAUGUUUGUACUGUUCAGUUCUUAAUUAGUAAAGGAGCGAAUGUGAAUAGAACCACAGCUAAUAAUGACCAUACUGUACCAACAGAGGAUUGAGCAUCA: 0.527 ratio
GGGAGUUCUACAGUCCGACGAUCGGCCAGAGCCUGAACAGACUCUUUCAGGAAGUACCGAAACGAAGAAAUGGGUCUGAAGGUAACAUCACUACCCGGAUCCGAGCAUCUGAGACUGGUUCUGAUGAAGCCAUCAAGUCCAUCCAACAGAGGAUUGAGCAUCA: 0.062 ratio
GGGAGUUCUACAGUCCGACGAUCGUUUACUCUCAGAGCACAGCUCUUACUCAUAAGCAGUCUUAUUAUUCCAUUGCCAAAUGUGUAGCUGCCCUUACUCGAGCAUGCCCUAAAGAGGGACCAGCUGUAGUAGGUCAGUUUAUUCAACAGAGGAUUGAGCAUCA: 0.143 ratio
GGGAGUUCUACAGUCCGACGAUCAGAUUCAAACCUGUGGUACCAUGGCCUCAUGUUGAAGGAGUAGAAGUGGACUUAGAGUCUAUUAGAAGAAAAAACAAAGCCAAAAAUGAACAGGAGCGCCAUGCUGGAGGAGAUUCCCAGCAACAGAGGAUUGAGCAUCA: 4.89 ratio
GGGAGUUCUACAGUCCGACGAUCAUAAUGAUGCUUUGCGAGGCUCGAAGAGCAGUUCAGAAGAAUAUGAUAUUUAUUGAUCAAAAUAGAGUUAUGCUUAAAUAUCUCUUUCCUUUGAAUGAAAUUGUGGUAGAUUUUUAUGACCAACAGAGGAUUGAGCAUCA: 2.17 ratio
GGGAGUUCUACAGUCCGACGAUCCAGAUGUCUCCCCUUUCCUUAUAUGGUGAAAACUCUAAUAGUCUCUCUUCAGCGGAGCCACUGAAGGAAGAUAAGCCUGUCACUGGUCCUAGGAACAAGACUGAAAAUGGACUGACUCCACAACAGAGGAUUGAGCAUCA: 0.227 ratio
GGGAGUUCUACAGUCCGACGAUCAAAGAACAGGUUUUAGAACCUAUGCUAAAUGGAACAGAUAAAACACCAGCAUUAAUUUCUGAUUAUAAAGAAUAUCAUACUGACACAACUGUGAAAUUUGUGGUGAAAAUGACUGAAGAGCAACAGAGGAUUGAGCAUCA: 0.219 ratio
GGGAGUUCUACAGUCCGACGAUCUCUCCUGAUCUAAUGAGUUUUAUGAUGGAAUUGAAGAUGAUUUUGGAAGUUGCUUUAAAGAAUAAGCAAGAGUUGUGUGUACAACCACCUUCUUGCAGUUUCUGCAAAGACCUUCUUACUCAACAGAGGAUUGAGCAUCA: 0.148 ratio

Sample 2 — technique: RNA Bind-n-Seq; molecule type: RNA; sample: in vitro; tested at: 200 nM; notes: whole 134-nt RNA, ends assumed; with: 150 mM KCl; reference: input library; direction: higher = stronger binding; measurement: log2 enrichment
Target: Fragile X messenger ribonucleoprotein 1, C-terminal low-complexity region (Fmr1, Mus musculus, UniProt P35922)
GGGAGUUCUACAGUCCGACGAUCCUCAAGUCCUGUGCUACACAUCGUAUGUACCGAAUCGGGAGGGAGGGGAGGGGAAAGUAUUAUGUUACGCCGUUCGGAUCUGCACUUCCAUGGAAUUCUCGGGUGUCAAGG: 1.19
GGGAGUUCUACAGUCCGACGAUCUCAAGUCCUGUGCUACACAUCGUAUGUACCGAAUCGGAAAGGGAAAGGAAAGGGAAAGUAUUAUGUUACGCCGUUCGGAUCUGCACUUCCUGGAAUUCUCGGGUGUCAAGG: -0.428
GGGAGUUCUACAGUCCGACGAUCCAAGUCCUGUGCUACACAUCGUAUGUACCGAAUCGGGGAAAGGGAAAGGGAAAGGAAAGUAUUAUGUUACGCCGUUCGGAUCUGCACUUCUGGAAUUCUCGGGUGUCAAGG: -0.126
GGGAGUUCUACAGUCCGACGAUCUUGUGUUCGUGAAUUGUAACUCCAGAAGCAAUGCCUGUACAAGCUCCACAAUGGACGGAUUUCCUCUCCUGCCCAAUUUGCACUCAGACUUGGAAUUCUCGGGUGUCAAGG: 0.928
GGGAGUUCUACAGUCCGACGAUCCUCAAGUCCUGUGCUACACAUCGUAUGUACCGAAUCGGUUUUUGGAAAGGUGGAAAGUAUUAUGUUACGCCGUUCGGAUCUGCACUUCCAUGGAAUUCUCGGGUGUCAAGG: -0.199
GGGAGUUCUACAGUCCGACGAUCCCUGUGCUACACAUCGUAUGUACCGAAUCGGGGUUUUUUGGGGUUUUUUGGUUUUUUGGGAAAGUAUUAUGUUACGCCGUUCGGAUCUGCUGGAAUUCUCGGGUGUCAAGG: -0.256
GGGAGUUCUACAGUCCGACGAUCCACAGACAACACGCACCCACACAGACACAGAGGGAAGGGGUUGGGAUGGGGACAGAAAGCACAGCAGGGCGGGGUAGGACCCCAGCCCCUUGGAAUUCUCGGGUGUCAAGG: 1.24
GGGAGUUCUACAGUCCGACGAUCACCAUGCAGGUGGGCAUCUUUGGGAAAAAGGGCAAGGGGGGGAUAGGGAGGGGGGUAACACUUUGGGAACAGGUGGUCCCAGGUCGUUUCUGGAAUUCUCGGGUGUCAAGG: 0.872
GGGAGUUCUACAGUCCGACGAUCCCUGUGCUACACAUCGUAUGUACCGAAUCGGGGUUUUUUUGGGGUGGGGAAAAAAAGGGGAAAGUAUUAUGUUACGCCGUUCGGAUCUGCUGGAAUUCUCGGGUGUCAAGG: 0.213

Sample 3 — technique: competition protein-binding microarray; molecule type: double-stranded DNA, one strand shown; sample: in vitro; tested at: 2 µM; with: Pho4 competitor, 0.05 µM; direction: higher = stronger binding; measurement: fluorescence intensity
Target: Centromere-binding protein 1, full length, His-tagged (CBF1, Saccharomyces cerevisiae, UniProt P17106, residues 1-351)
UniProt P17106, sequence (whole entry, looked up): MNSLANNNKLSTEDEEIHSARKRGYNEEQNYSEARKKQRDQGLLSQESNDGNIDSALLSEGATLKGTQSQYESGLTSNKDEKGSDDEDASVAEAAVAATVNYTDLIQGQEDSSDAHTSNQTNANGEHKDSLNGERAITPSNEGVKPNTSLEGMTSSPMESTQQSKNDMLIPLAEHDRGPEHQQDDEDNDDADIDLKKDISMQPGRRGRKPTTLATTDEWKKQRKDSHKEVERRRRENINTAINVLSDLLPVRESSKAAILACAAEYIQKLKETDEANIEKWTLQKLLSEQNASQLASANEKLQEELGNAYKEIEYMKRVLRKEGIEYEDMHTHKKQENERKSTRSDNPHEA
Notes: whole 60-bp probe, lowest competitor level
TTTTAAGGGTTTCGCCATGTGGCATGCCACCGGCAAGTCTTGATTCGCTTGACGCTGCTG: 72.9 a.u.
CGGGGTTAAGTTTGGATCGTGGGTGGCTTGCAGCAGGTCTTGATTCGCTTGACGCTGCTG: 78.5 a.u.
ATACTTTCATCACATCAGGTGGTTTAGGTACGATGGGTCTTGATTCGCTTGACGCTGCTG: 302 a.u.
AAAGCGGTAATTTGCGGCGTGGGTGCAGATATCTATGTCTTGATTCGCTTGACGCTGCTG: 82.3 a.u.
CGTCCTAGCGATTGATGAGTGGGTGCCATGAGGAAGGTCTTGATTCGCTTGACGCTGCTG: 84.1 a.u.
AATCTTTCAATCGCCATCGTGGGTAAGGATACGCCTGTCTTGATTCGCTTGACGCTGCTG: 66.4 a.u.
TAATCTGATGATCGGCACGTATAGGTCTGCGACCTTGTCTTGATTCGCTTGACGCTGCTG: 65 a.u.
TACCTTAACCCCGGCACCGTGCGATGCAGATCCGCCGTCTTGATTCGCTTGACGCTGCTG: 51.2 a.u.
GTCATCCTCGTCGTTCACGGGTTTAATTTGAATCCTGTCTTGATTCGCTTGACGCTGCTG: 165 a.u.
AAAGCGGTAATTTGGCTCGTGGGTGCAGATATCTATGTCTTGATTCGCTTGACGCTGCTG: 81.3 a.u.
TTTTTCTCGAACGGCCACGTTTGCGTTGTTACATGAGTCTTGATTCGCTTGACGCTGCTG: 79.5 a.u.
TTAACTGCCCAAGGACACATGCCCTGGGCTGGAACCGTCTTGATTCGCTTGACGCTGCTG: 59.8 a.u.
TATGCGATGAATACGCACATGGGCTCTCCTGGCGGAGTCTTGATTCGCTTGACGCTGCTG: 74.1 a.u.
CTTTCCCGATCTTGCGTAGTGGGTGTAGCACATTTGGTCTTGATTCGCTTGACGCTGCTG: 89 a.u.
GTCTTGTCTCATTGAGAAGTGGGTGTCCCCACTTCAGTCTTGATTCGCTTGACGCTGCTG: 100 a.u.
CGGGGTTAAGTTTGCCTGGTGGGTGGCTTGCAGCAGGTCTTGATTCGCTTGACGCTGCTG: 61 a.u.

Sample 4 — technique: protein binding microarray; molecule type: double-stranded DNA, one strand shown; sample: in vitro; tested at: not given; reference: not given; direction: higher = stronger binding; measurement: E-score
Target: Histone acetyltransferase KAT6A, both winged helices, GST fusion (KAT6A, Homo sapiens, UniProt Q92794, residues 1-181)
Notes: 8-mer, flanks averaged, mean of 2 arrays, mostly near background
Construct (chain): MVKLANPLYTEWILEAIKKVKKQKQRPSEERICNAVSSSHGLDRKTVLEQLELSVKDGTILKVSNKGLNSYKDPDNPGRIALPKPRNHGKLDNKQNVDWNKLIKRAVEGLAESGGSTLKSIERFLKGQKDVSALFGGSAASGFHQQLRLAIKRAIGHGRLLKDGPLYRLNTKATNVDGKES
GCCCGACC: 0.0513
GTCGGTGA: 0.0166
CCAAAAGC: 0.0774
AACTCGCT: 0.0445
TCCGAGGA: -0.0341
CGCCCCAC: -0.115
ACATTCGA: -0.0224
ACTCAACG: -0.0524
AGGTGACG: -0.0369
GGTATGGA: 0.0707
AAATTCGC: -0.0407
AACTGCAC: -0.142
CGTTGAAC: 0.132
AGGTCAAA: -0.11
GATCTGAA: -0.0407
ATTAACCA: -0.0962
GAACCGAA: 0.0624
CAGACTAG: -0.0217

Repeated from above (sample 2):
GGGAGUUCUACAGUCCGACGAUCCUCAAGUCCUGUGCUACACAUCGUAUGUACCGAAUCGGUUUUUGGAAAGGUGGAAAGUAUUAUGUUACGCCGUUCGGAUCUGCACUUCCAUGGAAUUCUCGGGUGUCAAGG: -0.199
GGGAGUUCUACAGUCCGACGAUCCCUGUGCUACACAUCGUAUGUACCGAAUCGGGGUUUUUUGGGGUUUUUUGGUUUUUUGGGAAAGUAUUAUGUUACGCCGUUCGGAUCUGCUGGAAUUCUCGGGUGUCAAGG: -0.256
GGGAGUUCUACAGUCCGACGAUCUCAAGUCCUGUGCUACACAUCGUAUGUACCGAAUCGGAAAGGGAAAGGAAAGGGAAAGUAUUAUGUUACGCCGUUCGGAUCUGCACUUCCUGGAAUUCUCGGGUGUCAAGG: -0.428
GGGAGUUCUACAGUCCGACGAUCCAAGUCCUGUGCUACACAUCGUAUGUACCGAAUCGGGGAAAGGGAAAGGGAAAGGAAAGUAUUAUGUUACGCCGUUCGGAUCUGCACUUCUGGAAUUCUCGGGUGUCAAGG: -0.126
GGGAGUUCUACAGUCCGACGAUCCUCAAGUCCUGUGCUACACAUCGUAUGUACCGAAUCGGGAGGGAGGGGAGGGGAAAGUAUUAUGUUACGCCGUUCGGAUCUGCACUUCCAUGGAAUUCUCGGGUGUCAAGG: 1.19
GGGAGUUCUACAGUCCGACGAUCCACAGACAACACGCACCCACACAGACACAGAGGGAAGGGGUUGGGAUGGGGACAGAAAGCACAGCAGGGCGGGGUAGGACCCCAGCCCCUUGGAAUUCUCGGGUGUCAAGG: 1.24
